Published values pooled from the literature.
Each numbered part is a random draw from the data of one study; scales do not carry over between parts. Changes are numbered by the printed parent chain.

Study 1 — method: RNA Bind-n-Seq; molecule type: RNA; sample: in vitro; tested at: not given; reference: input RNA pool; direction: higher = stronger binding
Target: RING finger protein unkempt homolog, zinc fingers 1-6, GST-SBP tag (UNK, Homo sapiens, UniProt Q9C0B0, residues 30-357)
UniProt Q9C0B0, sequence (30-357, looked up): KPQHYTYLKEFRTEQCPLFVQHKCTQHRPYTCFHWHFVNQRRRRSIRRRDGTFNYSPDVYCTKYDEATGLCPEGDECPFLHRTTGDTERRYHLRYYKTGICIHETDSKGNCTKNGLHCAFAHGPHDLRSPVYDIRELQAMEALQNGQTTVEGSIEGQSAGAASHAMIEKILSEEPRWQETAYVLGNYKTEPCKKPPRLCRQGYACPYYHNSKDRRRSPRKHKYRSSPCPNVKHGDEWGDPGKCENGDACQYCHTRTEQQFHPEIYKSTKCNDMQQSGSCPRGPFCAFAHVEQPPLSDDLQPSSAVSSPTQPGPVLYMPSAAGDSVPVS
Notes: RNA with constant flanks, human and mouse sites, ends assumed
Constant ends, left off below: GGGAGUUCUACAGUCCGACGAUC … CAACAGAGGAUUGAGCAUCA
Oligonucleotide	bound/input enrichment [ratio]
CUAGAAUGUGAAUUUUACCUCUUAGAAUUAAUGGACUGUUGCUUGAUAGUGUAUCAUCCUUAUAGACCUUUGCUCCAGUAUGUGCAGGACAUGGGCCAGGAAGACGUGCUGCUUCCCCUU	1.91
GUUGCUGUGAACUCAGGAGGAAAGCAUUGCCUUGCUCUCUCUUCAGAAGGCGAAGUUUACUCUUGGGGCGAGGCAGAAGAUGGGAAGUUGGGACAUGGCAACAGAAGUCCAUGUGACCGC	0.126
GUGGGAGAUUUGGUUCUCAUCAUCCUAGAUGAGCGGCACGACAAUUAUGUAUUGUUUACUGUUAGUCCUACUUUAUAUUUUCUGCACUCAGAGUCUCUUCCUGCCCUGGAUCUCAAACCA	0.721
UCCCUUUCCUUCUCUACCGAUUUUGCACUUUUCUCUAUGCUCACCACCAAGUGUAAUCAAUAACAAGCACUGACAAUACAUAGCAAUAGUGAAAUCUGAAAUAACUAAGAAUUAGGUACU	0.645
GGGAUGUCGCUGCUGGUUCGGGCAGAGUCCGACGGAUCACUACUCUUGGAAUCAAAGAUAAAUCCAAAUACUGCAUAUCAGAAACAACAGGAUACAUUAAUUGUUUGGUCAGAAGCAGAG	0.16
UGGAGGGGAAUCCUAUUAUUUGGGCCGCCUGGAACAGGAAAGUCCUACUUAGCCAAAGCUGUAGCAACAGAAGCCAACAACUCAACAUUUUUUUCAAUAUCUUCCUCUGAUCUUGUUUCU	1.82
GAGUCAUAUUUGAUGUUUGUGAAGUCCCUGUGUUUGGGGCCAACACUGAUCUACUCGGCUAAGUUUGUGCUUGUCUUCCCGCUCAUGUACCACUCACUGAAUGGGAUCCGACACUUGCUA	0.157
GGCCCCUGCCGGGCGCGCAGUGGCACCAUGGGCACGGUGCUGUCCCUAUCCCCCAGCUAUCGGAAGGCCACACUGUUUGAGGAUGGCGCGGCCACCGUGGGCCACUACACGGCCGUGCAG	0.129

Study 2 — target: CCND3, cyclin fold, Cln2 fusion (human); method: yeast growth competition, sequencing; sample: yeast; notes: weak parent motif; reference: not given; direction: higher = stronger binding
Parent: WEE1 docking peptide (human); CTLRQKLIFSPCS; partner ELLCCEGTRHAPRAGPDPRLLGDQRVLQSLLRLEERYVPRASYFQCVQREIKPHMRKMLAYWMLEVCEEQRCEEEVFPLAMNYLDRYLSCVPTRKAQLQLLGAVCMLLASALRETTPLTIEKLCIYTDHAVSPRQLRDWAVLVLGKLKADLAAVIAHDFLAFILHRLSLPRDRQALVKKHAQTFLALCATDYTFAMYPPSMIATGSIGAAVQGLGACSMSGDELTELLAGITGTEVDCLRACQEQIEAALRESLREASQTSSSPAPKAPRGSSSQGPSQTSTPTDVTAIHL
Change	normalised enrichment score
ATLRQKLIFSPCS [C1A]	-0.0342
CTARQKLIFSPCS [L3A]	-0.313
CTLRQKLIASPCS [F9A]	0.0633
CTLRQALIFSPCS [K6A]	-0.182
CTLRQKLIFSACS [P11A]	-0.248
CTLAQKLIFSPCS [R4A]	0.0152

Study 3 — method: DHFR PCA, deep sequencing; sample: yeast; added: (+)-ABA 0.032 µM; reference: wild-type fitted maximum; direction: higher = stronger binding
Target: ABI1, truncated, D143A, DHFR fusion (Arabidopsis thaliana)
Notes: methotrexate growth selection, single substitutions
Parent: PYL1, truncated, DHFR fusion (Arabidopsis thaliana); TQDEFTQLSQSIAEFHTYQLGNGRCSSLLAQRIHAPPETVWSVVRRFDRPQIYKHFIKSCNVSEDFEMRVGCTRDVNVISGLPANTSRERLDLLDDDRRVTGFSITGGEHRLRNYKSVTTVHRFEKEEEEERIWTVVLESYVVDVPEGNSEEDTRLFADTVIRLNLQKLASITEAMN
Change	relative binding score [%]
T1I	32.5
E4N	1.14
K168A	-8.1
P37A	20.3
A175K	24.5
E129F	11.8
T119C	1.98
N85W	42.9
L169Q	5.52
E4L	27.3

Single results of other studies
Substance	target	test	test system	conditions	how to read	endpoint	result
PhoQ, residues 284 288 289 292 302 303 ALASRC	PhoP, residues 12 14 15 18 19 HEGLL (Escherichia coli, UniProt P23836)	Sort-seq, refers to: YFP reporter	E. coli	PhoQ-PhoP variant library, added: 10 µM Mg2+	reference: high Mg2+ state, higher = stronger signaling	fold induction	7.28

Excerpt of the above (study 2):
Change	normalised enrichment score
ATLRQKLIFSPCS [C1A]	-0.0342
CTLRQKLIASPCS [F9A]	0.0633
CTLRQKLIFSACS [P11A]	-0.248
CTLRQALIFSPCS [K6A]	-0.182
